Experimental data pooled from the literature.
Every numbered part comes from another study and shows a few of its results, in no order.
Sequence of UniProt O14757 (whole entry, looked up): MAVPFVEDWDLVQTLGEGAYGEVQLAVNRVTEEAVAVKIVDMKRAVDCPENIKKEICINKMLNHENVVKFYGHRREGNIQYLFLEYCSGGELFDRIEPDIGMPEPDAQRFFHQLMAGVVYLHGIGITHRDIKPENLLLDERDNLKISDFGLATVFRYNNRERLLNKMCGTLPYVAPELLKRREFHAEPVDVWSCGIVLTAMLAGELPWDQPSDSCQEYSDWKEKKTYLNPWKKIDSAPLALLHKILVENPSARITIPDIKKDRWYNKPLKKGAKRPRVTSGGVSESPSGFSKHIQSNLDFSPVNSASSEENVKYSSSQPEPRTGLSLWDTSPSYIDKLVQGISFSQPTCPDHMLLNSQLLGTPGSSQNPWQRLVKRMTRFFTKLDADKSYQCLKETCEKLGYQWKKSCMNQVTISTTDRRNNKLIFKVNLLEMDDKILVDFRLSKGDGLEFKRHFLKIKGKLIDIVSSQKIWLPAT
Sequence of UniProt P27361 (whole entry, looked up): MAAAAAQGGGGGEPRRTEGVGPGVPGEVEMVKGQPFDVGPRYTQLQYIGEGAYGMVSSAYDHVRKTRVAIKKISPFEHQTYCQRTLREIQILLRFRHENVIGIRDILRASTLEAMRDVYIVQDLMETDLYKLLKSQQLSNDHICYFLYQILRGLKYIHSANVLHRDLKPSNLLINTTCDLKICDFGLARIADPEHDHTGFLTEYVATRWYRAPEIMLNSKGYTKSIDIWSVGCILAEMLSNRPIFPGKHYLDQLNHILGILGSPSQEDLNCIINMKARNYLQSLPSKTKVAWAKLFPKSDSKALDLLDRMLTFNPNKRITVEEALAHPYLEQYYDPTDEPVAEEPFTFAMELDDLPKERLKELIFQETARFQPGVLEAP
Sequence of UniProt P35590 (whole entry, looked up): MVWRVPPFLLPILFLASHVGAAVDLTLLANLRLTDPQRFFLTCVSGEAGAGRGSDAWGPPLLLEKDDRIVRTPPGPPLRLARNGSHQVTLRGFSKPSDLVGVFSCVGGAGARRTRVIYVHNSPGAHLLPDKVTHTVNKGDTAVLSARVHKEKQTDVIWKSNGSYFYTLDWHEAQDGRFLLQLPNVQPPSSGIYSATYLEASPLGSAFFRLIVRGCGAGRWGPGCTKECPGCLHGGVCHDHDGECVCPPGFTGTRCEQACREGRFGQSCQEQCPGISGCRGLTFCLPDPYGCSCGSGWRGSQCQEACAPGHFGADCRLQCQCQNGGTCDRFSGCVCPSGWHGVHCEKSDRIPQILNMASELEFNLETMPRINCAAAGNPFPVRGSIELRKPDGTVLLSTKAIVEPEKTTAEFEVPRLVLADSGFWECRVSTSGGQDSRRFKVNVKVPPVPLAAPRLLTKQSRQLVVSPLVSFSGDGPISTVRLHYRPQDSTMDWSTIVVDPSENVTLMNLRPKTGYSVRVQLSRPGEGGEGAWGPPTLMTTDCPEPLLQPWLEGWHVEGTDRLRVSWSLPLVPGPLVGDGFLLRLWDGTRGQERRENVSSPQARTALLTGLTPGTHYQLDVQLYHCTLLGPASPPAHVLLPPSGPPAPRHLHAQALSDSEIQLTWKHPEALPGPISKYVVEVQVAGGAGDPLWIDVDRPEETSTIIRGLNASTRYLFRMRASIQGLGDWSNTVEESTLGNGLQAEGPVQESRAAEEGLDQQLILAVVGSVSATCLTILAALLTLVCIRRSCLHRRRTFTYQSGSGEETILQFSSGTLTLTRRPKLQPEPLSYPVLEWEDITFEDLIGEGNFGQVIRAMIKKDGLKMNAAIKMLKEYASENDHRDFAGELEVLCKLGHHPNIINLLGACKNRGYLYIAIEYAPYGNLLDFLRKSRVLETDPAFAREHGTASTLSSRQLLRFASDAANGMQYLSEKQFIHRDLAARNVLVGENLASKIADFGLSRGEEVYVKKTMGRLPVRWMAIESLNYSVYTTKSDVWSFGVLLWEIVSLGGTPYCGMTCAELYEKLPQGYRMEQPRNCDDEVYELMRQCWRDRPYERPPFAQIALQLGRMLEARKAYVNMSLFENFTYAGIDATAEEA

Block 1
Compound: CO[C@@H]1[C@H](N(C)C(=O)c2ccccc2)C[C@H]2O[C@]1(C)n1c3ccccc3c3c4c(c5c6ccccc6n2c5c31)C(=O)NC4
Mode: inhibitor
Tested at: 1 µM
Endpoint: inhibition
PRKD1 (Homo sapiens, UniProt Q15139); enzyme activity: 0%
WEE2 (Homo sapiens, UniProt P0C1S8); enzyme activity: 0%
DCLK3 (Homo sapiens, UniProt Q9C098); enzyme activity: 0%
Ribosomal protein S6 kinase alpha-6, C-terminal kinase domain (RPS6KA6, Homo sapiens, UniProt Q9UK32): 12%
HCK (Homo sapiens, UniProt P08631); enzyme activity: 45%
MAPK3 (Homo sapiens, UniProt P27361); enzyme activity: 0%

Block 2
Cell line: mouse MPNST tumor cells
Method: high-content nuclear imaging
Item: cell number
Tested at: 10 µM
Time: 12 h
Setting: mean of 2 replicates
Relative to: plate mean
Direction: higher = more cells
Endpoint: nuclei count
Cn1cc(-c2ccc3c(c2)CCN3C(=O)Cc2cccc(C(F)(F)F)c2)c2c(N)ncnc21: -0.185 z-score
CN1CC(=O)N=C1NC(=O)Nc1cccc(Cl)c1: -0.37 z-score
CCCCOc1cc(CC2CNC(=O)N2)ccc1OC (stereo not shown): 0.799 z-score
COc1cc2c(Nc3ccc(NC(=O)c4ccccc4)cc3)ncnc2cc1OCCCN1CCOCC1: -4.84 z-score
N[C@@H](Cc1ccc(O)c(O)c1)C(=O)O: 0.96 z-score
Nc1nc2c(ccc3ccccc32)s1: 1.96 z-score

Block 3
SMILES: CCC(=O)N[C@H]1CC[C@@H](C(=O)N(C)c2ccc(-c3nc4ccccc4o3)cc2)C1
Read-out: cell-free assay
Method: competition with immobilised ligand
Tested at: 1 µM
Endpoint: remaining binding
ANKK1 (Homo sapiens, UniProt Q8NFD2): 66%
CDK13 (Homo sapiens, UniProt Q14004): 100%
GRK2 (Homo sapiens, UniProt P25098): 66%
Tyrosine-protein kinase ABL1, phosphorylated (ABL1, Homo sapiens, UniProt P00519, Q252H): 78%
FLT3 (Homo sapiens, UniProt P36888, D835H): 95%
RIOK3 (Homo sapiens, UniProt O14730): 92%
TRPM6 (Homo sapiens, UniProt Q9BX84): 76%
TIE1 (Homo sapiens, UniProt P35590): 100%
MAP4K3 (Homo sapiens, UniProt Q8IVH8): 85%
CDK4 (Homo sapiens, UniProt P11802): 78%
CHEK1 (Homo sapiens, UniProt O14757): 100%
CAMK1D (Homo sapiens, UniProt Q8IU85): 100%
RET (Homo sapiens, UniProt P07949): 92%
KIT (Homo sapiens, UniProt P10721): 94%
PDGFRA (Homo sapiens, UniProt P16234): 85%
Tyrosine-protein kinase ABL1, phosphorylated (ABL1, Homo sapiens, UniProt P00519, M351T): 94%
PKMYT1 (Homo sapiens, UniProt Q99640): 99%

Block 4
Target: Calcium/calmodulin-dependent protein kinase type II subunit alpha (CAMK2A, Homo sapiens, UniProt Q9UQM7)
Sequence of UniProt Q9UQM7 (whole entry, looked up): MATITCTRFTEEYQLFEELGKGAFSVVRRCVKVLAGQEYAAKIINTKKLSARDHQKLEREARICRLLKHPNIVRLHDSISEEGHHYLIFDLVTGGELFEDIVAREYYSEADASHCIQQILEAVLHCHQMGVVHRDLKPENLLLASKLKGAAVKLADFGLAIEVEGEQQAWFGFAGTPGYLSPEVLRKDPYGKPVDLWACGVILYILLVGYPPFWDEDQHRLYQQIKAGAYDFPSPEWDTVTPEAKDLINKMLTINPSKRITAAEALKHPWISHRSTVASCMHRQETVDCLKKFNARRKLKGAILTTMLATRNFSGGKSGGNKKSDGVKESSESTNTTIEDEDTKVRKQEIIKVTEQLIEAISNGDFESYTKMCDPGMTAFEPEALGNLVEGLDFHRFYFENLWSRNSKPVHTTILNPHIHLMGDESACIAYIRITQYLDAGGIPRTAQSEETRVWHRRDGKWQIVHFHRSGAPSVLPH
Read-out: enzyme activity
Mode: inhibitor
Tested at: 10 µM
Endpoint: inhibition
COc1ccc(/C=C/c2cc(O)cc(O[C@@H]3O[C@H](CO)[C@@H](O)[C@H](O)[C@H]3O)c2)cc1: 31%
CC(C)CCCCCCCCC[C@@H]1CC(=O)N[C@@H](CCC(=O)O)C(=O)N[C@@H](CC(C)C)C(=O)N[C@H](CC(C)C)C(=O)N[C@@H](C(C)C)C(=O)N[C@@H](CC(=O)O)C(=O)N[C@H](CC(C)C)C(=O)N[C@@H](CC(C)C)C(=O)O1: -46%
CC=Cc1ccc(OC(C)=O)c(OC)c1: -3%

Block 5
Target: DNA polymerase theta, ATPase domain (POLQ, Homo sapiens, UniProt O75417)
Sequence of UniProt O75417 (whole entry, unmodified, looked up): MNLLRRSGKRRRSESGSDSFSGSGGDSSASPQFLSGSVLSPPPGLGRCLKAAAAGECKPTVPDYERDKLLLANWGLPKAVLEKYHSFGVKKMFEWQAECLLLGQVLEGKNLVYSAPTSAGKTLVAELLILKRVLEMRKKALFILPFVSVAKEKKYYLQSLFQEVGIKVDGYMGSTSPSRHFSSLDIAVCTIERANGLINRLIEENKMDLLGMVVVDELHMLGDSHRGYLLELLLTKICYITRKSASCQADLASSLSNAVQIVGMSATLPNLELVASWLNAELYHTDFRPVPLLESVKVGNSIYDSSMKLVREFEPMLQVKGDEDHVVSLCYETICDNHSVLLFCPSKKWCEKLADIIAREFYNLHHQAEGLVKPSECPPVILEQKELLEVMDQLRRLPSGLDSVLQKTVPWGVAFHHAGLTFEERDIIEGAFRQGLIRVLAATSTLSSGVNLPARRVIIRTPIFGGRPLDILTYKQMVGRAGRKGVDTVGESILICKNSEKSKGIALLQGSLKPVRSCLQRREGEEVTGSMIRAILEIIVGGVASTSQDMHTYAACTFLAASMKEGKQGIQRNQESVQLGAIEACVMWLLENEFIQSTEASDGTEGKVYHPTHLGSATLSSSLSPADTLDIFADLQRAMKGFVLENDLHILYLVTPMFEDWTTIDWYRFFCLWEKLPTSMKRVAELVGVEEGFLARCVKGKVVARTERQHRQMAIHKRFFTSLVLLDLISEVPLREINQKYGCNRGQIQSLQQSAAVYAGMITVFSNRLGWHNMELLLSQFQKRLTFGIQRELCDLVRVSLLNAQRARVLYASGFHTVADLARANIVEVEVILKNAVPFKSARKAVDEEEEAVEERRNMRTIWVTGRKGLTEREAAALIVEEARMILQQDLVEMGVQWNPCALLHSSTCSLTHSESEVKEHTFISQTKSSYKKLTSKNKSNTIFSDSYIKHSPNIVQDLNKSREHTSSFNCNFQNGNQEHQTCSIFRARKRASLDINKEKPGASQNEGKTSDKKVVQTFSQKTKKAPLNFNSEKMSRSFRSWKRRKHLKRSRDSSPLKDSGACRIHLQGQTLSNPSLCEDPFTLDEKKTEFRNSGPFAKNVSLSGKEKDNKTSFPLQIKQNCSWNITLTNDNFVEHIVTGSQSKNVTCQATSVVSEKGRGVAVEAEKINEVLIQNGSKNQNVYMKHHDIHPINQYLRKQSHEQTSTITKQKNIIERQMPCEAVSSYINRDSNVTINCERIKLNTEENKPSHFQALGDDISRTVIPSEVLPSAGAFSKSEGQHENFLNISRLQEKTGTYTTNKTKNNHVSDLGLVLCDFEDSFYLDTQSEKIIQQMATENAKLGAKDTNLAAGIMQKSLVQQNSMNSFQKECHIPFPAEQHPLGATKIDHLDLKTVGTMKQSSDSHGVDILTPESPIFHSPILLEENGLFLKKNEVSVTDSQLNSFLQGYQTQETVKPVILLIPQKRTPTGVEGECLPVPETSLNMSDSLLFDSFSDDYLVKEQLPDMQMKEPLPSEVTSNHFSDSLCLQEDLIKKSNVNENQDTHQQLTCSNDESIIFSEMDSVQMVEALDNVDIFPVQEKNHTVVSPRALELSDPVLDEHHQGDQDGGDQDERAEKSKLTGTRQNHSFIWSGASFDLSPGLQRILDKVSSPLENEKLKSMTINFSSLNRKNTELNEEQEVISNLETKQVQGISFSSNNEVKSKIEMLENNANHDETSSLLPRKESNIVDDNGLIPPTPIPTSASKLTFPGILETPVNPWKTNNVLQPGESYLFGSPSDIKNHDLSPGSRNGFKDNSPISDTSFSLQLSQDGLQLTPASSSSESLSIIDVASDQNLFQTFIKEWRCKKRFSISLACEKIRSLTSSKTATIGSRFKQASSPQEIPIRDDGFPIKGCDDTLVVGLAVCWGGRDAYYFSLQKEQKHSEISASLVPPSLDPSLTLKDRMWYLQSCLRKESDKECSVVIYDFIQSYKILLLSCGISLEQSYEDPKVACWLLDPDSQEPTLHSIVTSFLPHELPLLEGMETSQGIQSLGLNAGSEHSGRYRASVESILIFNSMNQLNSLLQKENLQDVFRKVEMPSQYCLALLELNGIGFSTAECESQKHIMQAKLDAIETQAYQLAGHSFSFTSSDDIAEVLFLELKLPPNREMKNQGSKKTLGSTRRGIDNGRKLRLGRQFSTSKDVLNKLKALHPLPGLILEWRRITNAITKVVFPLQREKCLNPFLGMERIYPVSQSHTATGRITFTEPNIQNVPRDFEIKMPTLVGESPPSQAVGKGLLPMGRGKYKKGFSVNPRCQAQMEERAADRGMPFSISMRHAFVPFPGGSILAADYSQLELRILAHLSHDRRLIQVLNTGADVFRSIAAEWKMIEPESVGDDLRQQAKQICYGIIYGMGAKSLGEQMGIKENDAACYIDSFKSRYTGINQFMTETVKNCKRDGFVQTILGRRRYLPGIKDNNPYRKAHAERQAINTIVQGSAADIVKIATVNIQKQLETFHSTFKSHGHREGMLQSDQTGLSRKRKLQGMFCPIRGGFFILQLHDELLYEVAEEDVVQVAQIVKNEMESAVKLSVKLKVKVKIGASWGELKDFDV
Read-out: enzyme activity
Mode: inhibitor
Tested at: 77 µM
Relative to: untreated
Endpoint: remaining activity
C/C(=N\NC(=S)N1CCC1)c1ccccn1: 82.3%
CCCCCCCCCCCCCCCCn1cc[n+](Cc2ccccc2)c1C: 99.1%
CC(C)NCC(O)c1ccc2ccccc2c1 (stereo not shown): 99.9%
c1cnc2cc3c(cc2n1)[C@@H]1CNC[C@H]3C1: 99.7%
O=C(O)CCNC(=O)c1ccc(/N=N/c2ccc(O)c(C(=O)O)c2)cc1: 93.8%
